Measurements of several laboratories.
Parts stem from different laboratories: compare values within a part only. Substitutions count along the parent as printed.
Sequence of UniProt Q9HBH9 (whole entry, looked up): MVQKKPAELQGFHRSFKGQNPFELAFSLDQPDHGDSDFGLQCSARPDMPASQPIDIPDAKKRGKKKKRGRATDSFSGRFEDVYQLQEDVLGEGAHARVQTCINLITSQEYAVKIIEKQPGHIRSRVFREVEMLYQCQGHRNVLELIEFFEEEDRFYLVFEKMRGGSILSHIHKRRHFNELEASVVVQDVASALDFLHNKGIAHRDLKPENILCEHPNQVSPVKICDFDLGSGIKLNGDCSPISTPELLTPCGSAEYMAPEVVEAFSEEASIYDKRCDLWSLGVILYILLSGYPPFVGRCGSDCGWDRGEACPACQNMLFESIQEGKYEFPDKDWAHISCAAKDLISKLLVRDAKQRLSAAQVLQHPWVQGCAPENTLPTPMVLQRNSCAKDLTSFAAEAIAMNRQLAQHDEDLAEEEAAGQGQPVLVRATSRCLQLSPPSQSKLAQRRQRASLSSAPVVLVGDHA

Study 1 — observed: binding; technique: phage display NGS; molecule type: peptide; baseline: input library; quantity: minimum log2 enrichment ratio
Target: UDP-N-acetylglucosamine--peptide N-acetylglucosaminyltransferase 110 kDa subunit (OGT, Homo sapiens, UniProt O15294)
Sequence of UniProt O15294 (whole entry, looked up): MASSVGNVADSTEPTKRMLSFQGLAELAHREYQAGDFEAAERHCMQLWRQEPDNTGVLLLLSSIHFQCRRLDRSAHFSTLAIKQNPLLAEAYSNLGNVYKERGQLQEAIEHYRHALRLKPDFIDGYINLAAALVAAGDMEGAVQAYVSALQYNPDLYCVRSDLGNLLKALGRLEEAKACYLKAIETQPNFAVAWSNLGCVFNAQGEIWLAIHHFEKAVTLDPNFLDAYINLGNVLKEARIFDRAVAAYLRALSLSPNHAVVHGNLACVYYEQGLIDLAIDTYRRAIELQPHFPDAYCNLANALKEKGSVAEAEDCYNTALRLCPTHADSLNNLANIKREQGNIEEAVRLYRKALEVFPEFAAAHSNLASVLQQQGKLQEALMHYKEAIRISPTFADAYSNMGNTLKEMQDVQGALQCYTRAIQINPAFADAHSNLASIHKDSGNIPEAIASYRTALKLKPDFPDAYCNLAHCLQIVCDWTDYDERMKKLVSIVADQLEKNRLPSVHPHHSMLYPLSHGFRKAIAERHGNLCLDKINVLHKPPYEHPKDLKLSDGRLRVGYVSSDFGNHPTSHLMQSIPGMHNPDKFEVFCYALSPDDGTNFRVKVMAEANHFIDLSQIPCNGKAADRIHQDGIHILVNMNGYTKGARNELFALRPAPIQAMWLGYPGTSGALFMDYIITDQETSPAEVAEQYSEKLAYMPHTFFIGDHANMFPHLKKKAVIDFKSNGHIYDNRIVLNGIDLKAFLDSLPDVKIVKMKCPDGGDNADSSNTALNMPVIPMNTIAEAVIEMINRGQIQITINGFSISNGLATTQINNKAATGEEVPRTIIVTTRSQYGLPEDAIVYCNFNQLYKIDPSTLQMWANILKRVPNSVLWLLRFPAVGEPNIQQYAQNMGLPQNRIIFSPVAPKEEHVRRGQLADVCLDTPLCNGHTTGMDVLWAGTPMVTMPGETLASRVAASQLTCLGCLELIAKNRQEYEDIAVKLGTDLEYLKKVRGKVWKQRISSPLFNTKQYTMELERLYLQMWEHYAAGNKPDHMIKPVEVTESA
HMKHMAIAMGGHFHT: 1.94
HTPRVDYRFHATHHH: 2.67
HGRDTYMEKGHYHF: 1.93
HTASQPQHTYWHRTQ: 1.3
FPHHILQHHRQDDFH: 2.31
DFMPYYQIIYTAPQS: 5.75
HIYPRHQHSFEPVK: 3.34
TQDYFHPKYNIIYQT: 3.32

Study 2 — target: vanadate, free oxyanion; technique: microfluidic competitive inhibition; sample: in vitro, cell-free expressed; concentration: not given; reading: lower = stronger binding; quantity: oxyanion analog dissociation constant
Notes: derived from inhibition constants, unchanged parent 676 nM
Parent: PafA, mature enzyme, eGFP fusion (Elizabethkingia meningoseptica, UniProt Q9KJX5); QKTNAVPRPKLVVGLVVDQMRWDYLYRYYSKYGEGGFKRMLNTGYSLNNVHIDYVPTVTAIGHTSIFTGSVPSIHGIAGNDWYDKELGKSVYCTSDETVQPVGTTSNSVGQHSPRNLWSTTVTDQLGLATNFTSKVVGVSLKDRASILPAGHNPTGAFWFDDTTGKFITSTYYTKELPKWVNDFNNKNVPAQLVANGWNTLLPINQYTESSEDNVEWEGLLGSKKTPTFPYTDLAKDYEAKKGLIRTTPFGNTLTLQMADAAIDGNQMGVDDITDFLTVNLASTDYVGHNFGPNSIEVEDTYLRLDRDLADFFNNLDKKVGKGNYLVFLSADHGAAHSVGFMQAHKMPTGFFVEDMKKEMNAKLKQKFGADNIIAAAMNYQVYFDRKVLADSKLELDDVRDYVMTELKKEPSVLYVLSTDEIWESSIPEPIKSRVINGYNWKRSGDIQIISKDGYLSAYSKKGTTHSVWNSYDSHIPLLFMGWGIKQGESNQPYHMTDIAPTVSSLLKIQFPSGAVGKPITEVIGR
R304V: 818 nM
P493V: 776 nM
I431V: 787 nM
V468A: 612 nM
S210V: 654 nM
D272G: 751 nM
D385V: 729 nM
S70G: 558 nM

Mixed results
N/C(=N\[N+](=O)[O-])N/N=C\c1ccc(-c2cccc([N+](=O)[O-])c2)o1  remaining activity (MKNK2 (Homo sapiens, UniProt Q9HBH9); enzyme activity, inhibitor; 0.5 µM; baseline: control): 89.3%
CC(=O)c1c(NS(C)(=O)=O)c2cc(-c3ccc(Cl)cc3)c(-c3ccc(Cl)cc3Cl)nc2n(C)c1=O  remaining binding (CRK2 (Plasmodium falciparum, UniProt P61075); cell-free assay, competition with immobilised ligand; 1 µM): 100%
